# Measurements collected from several papers.
# Each numbered part is a random draw from the data of one study; scales do not carry over between parts.

# Block 1
# Target: UBE2D3 UBC core domain (UniProt P61077)
# Technique: yeast two-hybrid
# Medium: yeast
# Notes: mostly zero background
# Reference: not given
# Reading: higher = stronger interaction
# B1: TRIM40 RING domain (UniProt Q6P9F5); chain LQKDNQEEGVCPICQESLKEAVSTNCGHLFCRVCLTQHVEKASASGVFCCPLCRKPCSEEVLG
# B2: SH3RF2 RING domain (UniProt Q8TEC5); chain DDLTLLDLLECPVCFEKLDVTAKVLPCQHTFCKPCLQRVFKAHKELRCPECRTPVFSNIEAL
# B3: TRIM43 RING domain (UniProt Q96BQ3); chain FSHAFQKELTCVICLNYLVDPVTICCGHSFCRPCLCLSWEEAQSPANCPACREPSPKMDFKT
# B4: TRIM13 RING domain (UniProt O60858); chain MELLEEDLTCPICCSLFDDPRVLPCSHNFCKKCLEGILEGSVRNSLWRPAPFKCPTCRKETSATGINS
# B5: NEURL1 RING domain (UniProt O76050); chain VTPGLGQWSDECTICYEHAVDTVIYTCGHMCLCYACGLRLKKALHACCPICRRPIKDIIKT
# B6: RC3H1 RING domain (UniProt Q5TC82); chain QAPQWTDFLSCPICTQTFDETIRKPISLGCGHTVCKMCLNKLHRKACPFDQTTINTDIELL
# B7: RNF111 RING domain (UniProt Q6ZNA4); chain EGTEEDTEEKCTICLSILEEGEDVRRLPCMHLFHQVCVDQWLITNKKCPICRVDIEAQLPSE
# Construct (chain): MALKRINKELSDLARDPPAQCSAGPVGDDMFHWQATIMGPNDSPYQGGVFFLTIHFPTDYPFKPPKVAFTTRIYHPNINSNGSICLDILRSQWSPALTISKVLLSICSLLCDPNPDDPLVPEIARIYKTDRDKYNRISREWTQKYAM
Molecule,lacZ reporter activity
B1 (TRIM40 RING domain),0
B2 (SH3RF2 RING domain),0
B3 (TRIM43 RING domain),0
VEPSEENSKDCVVCQNGTVNWVLLPCRHTCLCDGCVKYFQQCPMCRQFVQESFALC (CGRRF1 RING domain (UniProt Q99675)),0
QVDKAVFHMQSVKCLKCQEQKRAVLPCQHAALCELCAEGSECPICQPGRAHTLQS (UNK RING domain (UniProt Q9C0B0)),0
B4 (TRIM13 RING domain),0
B5 (NEURL1 RING domain),0
B6 (RC3H1 RING domain),0
DHGAVGQEMCCPICCSEYVKGEVATELPCHHYFHKPCVSIWLQKSGTCPVCRCMFPPPL (PJA1 RING domain (UniProt Q8NG27)),0
B7 (RNF111 RING domain),14700
FQGDVDEDLICPICSGVLEEPVQAPHCEHAFCNACITQWFSQQQTCPVDRSVVTVAHLRP (RNF41 RING domain (UniProt Q9H4P4)),0

# Block 2
# Target: HLA class I histocompatibility antigen, A alpha chain, allele A*80:01 (Homo sapiens, UniProt P04439)
# Observed: peptide-MHC binding
# Molecule type: peptide
# Tested at: concentration not given
Molecule,binding
AIDDFCLFA,inactive
QHAWPLPPL,inactive
ALGGSCHTT,inactive
ITNPFFYQM,inactive
HSNLNDTTY,inactive
VTGCASLYV,inactive

# Block 3
# Target: Leukocyte tyrosine kinase receptor (LTK, Homo sapiens, UniProt P29376)
# UniProt P29376, sequence (whole entry, looked up): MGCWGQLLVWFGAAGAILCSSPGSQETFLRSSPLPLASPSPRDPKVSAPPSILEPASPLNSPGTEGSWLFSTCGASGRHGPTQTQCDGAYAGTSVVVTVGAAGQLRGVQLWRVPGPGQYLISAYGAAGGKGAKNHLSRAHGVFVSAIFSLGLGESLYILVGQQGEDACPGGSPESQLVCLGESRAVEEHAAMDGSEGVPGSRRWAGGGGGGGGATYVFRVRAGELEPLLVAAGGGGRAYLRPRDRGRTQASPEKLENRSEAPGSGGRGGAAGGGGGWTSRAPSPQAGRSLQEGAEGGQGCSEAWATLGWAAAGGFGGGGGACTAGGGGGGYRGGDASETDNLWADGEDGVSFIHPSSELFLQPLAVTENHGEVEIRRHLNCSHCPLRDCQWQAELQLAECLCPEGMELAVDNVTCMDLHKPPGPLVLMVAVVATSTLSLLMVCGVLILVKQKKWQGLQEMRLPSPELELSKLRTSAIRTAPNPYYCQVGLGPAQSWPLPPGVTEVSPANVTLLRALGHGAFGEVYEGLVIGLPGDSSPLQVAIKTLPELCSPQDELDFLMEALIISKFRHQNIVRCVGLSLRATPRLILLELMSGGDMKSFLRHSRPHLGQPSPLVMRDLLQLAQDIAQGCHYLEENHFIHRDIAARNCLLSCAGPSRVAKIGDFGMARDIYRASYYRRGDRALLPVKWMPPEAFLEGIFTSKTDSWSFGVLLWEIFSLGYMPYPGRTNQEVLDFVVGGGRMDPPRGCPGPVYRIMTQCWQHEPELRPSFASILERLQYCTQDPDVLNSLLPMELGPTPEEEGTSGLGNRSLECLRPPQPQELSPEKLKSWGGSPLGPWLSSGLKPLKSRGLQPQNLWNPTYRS
# Observed: enzyme activity
# Mode: inhibitor
# Technique: radiometric
# Tested at: 0.5 µM
Compound,remaining activity [%]
COc1cc2c(N3CCN(C(=O)Nc4ccc(OC(C)C)cc4)CC3)ncnc2cc1OCCCN1CCCCC1,101
NC(=O)c1ccc(-c2nc(-c3ccc4c(c3)OCCO4)c(-c3ccccn3)[nH]2)cc1,93.5
c1cc(-c2cnn3cc(-c4ccc(OCCN5CCCCC5)cc4)cnc23)ccn1,95.4
O=c1c(-c2ccc(F)cc2)c(-c2ccncc2)[nH]n1-c1ccc(Cl)cc1,75.5

# Other studies, line by line
# Cell line: HH
# Tested at: concentration not given
# Notes: unit not given
# Reference: untreated control
Molecule,viability
NVP-AEW541,0.937
capivasertib,0.523

# Repeated from above (block 3):
Compound,remaining activity [%]
NC(=O)c1ccc(-c2nc(-c3ccc4c(c3)OCCO4)c(-c3ccccn3)[nH]2)cc1,93.5
c1cc(-c2cnn3cc(-c4ccc(OCCN5CCCCC5)cc4)cnc23)ccn1,95.4
O=c1c(-c2ccc(F)cc2)c(-c2ccncc2)[nH]n1-c1ccc(Cl)cc1,75.5
